Measured values pooled from the literature.
Numbered parts are unrelated; each lists some results of a single study.

Set 1 — method: RNA Bind-n-Seq; form: RNA; medium: in vitro; tested at: 1 µM; notes: whole 134-nt RNA, ends assumed; with: 150 mM KCl; reference: input library; direction: higher = stronger binding; endpoint: log2 enrichment
Target: Ras GTPase-activating protein-binding protein 1, C-terminal RGG region (G3BP1, Homo sapiens, UniProt Q13283)
Chain of UniProt Q13283 (whole entry, looked up): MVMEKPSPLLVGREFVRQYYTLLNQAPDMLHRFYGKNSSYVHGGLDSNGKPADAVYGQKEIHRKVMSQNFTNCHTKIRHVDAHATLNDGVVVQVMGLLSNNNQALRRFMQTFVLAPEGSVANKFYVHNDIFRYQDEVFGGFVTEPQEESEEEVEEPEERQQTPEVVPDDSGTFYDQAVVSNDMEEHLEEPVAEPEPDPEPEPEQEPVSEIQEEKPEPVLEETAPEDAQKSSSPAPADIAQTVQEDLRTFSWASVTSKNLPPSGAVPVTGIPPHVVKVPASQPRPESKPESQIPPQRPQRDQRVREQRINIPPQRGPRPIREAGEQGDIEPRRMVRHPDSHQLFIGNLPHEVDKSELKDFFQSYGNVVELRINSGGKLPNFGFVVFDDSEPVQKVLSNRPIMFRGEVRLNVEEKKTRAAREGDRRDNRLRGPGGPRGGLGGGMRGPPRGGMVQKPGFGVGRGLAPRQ
Strand = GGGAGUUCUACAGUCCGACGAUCCAAGUCCUGUGCUACACAUCGUAUGUACCGAAUCGGAAAAAAAGGAAAGGAAAGGAAAGUAUUAUGUUACGCCGUUCGGAUCUGCACUUCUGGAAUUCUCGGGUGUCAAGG; result = -1.86
Strand = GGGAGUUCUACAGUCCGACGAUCGUCCUGUGCUACACAUCGUAUGUACCGAAUCGGGGUUUUUGGUUUUUGGGUUUUUGGGAAAGUAUUAUGUUACGCCGUUCGGAUCUGCACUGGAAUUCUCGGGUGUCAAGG; result = -1.11
Strand = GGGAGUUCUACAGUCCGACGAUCCCUGUGCUACACAUCGUAUGUACCGAAUCAAACCCCCCCAAAUUUUUAAAUUUUUUUAAAAAAGUAUUAUGUUACGCCGUUCGGAUCUGCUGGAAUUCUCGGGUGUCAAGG; result = -1.07
Strand = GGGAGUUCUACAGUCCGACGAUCUGGACUUGCGGGUUCCCAUCUGGGACCAGGACAUACAGUUUCUCCCAGGAUCACAGAAGCUUGUCACCUGCACAGGGUACCACCAGGUAAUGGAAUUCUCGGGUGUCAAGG; result = -0.791
Strand = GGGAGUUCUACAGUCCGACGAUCUAACUUUAGAGGAGGAUCUGAUGGAUAUGGCAGUGGACGUGGAUCUGGGGAUGGCUAUAAUGGGUAUGGAGGAGGACCUGGAGGUGGCAAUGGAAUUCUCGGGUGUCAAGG; result = -0.928
Strand = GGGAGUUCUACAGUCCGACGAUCCUUGACCCUCAACACCAACCAUGGGCAUAUCCUGGUGGAUUACUCCAAGAACCUGGUGACGGAGGACGUGAUGCGGAUGCUGGUGGACUUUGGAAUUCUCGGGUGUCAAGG; result = -2.07
Strand = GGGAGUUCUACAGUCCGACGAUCAAGUCCUGUGCUACACAUCGUAUGUACCGAAUCGGUUUUUUUGGAAAAAAAGGAGGAAAGUAUUAUGUUACGCCGUUCGGAUCUGCACUUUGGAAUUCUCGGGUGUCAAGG; result = -2.3
Strand = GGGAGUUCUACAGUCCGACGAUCCUCAAGUCCUGUGCUACACAUCGUAUGUACCGAAUCGGGGAAGGGAAGGAAGGGAAAGUAUUAUGUUACGCCGUUCGGAUCUGCACUUCCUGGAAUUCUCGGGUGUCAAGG; result = -0.522
Strand = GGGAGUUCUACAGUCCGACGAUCACCAUGCAUGUGGGCAUCUUUGGGAAGUGGGGCAAGGGGGGGAUAGGGAGGGGGGUAACACUUUGGGAACAGGUGGUCCCAGGUCGUUUCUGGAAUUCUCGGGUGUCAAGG; result = -1.41
Strand = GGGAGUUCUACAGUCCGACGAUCUGGCCCUGGUGGCAUGCGGGGAGGAAGAGGUGGCCUCAUGGAUCGUGGUGGUCCCGGUGGAAUGUUGAGAGGUGGCCGUGGUGGAGACAGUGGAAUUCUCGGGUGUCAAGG; result = 3.35

Set 2 — method: protein binding microarray; form: double-stranded DNA, one strand shown; medium: in vitro; tested at: not given; reference: not given; direction: higher = stronger binding; endpoint: E-score
Target: Histone acetyltransferase KAT6A, both winged helices, GST fusion (KAT6A, Homo sapiens, UniProt Q92794, residues 1-181)
Notes: 8-mer, flanks averaged, mean of 2 arrays, mostly near background
Target sequence (chain): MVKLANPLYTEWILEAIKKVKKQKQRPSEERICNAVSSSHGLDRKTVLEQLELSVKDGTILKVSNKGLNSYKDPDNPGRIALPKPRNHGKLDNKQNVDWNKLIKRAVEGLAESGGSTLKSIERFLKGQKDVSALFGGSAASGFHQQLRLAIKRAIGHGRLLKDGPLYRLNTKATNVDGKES
Strand = AGTGCCGC; result = 0.224
Strand = GATCTCGC; result = 0.11
Strand = ATCCCAAG; result = -0.0736
Strand = GCCGTAGA; result = 0.233
Strand = AAGGCGCG; result = 0.348
Strand = CAGTTACA; result = -0.0176
Strand = GATCTGAC; result = 0.0827
Strand = GAAGATCA; result = -0.0502
Strand = AGCGGATA; result = 0.231
Strand = AATTTAAA; result = -0.177
Strand = TCACGAAA; result = -0.024
Strand = AAGTTGCA; result = -0.0448
Strand = ATAATTAT; result = -0.0133
Strand = GCGACTGA; result = 0.171
Strand = GTAGTAAA; result = -0.00237
Strand = ACCACTAT; result = -0.121
Strand = ACGGCGCG; result = 0.371
Strand = CTTTGGGC; result = -0.0435
Strand = ATAGTGTA; result = -0.185
Strand = TCCGACGA; result = 0.0678
Strand = AGCTACAA; result = -0.0675
Strand = ATGTTGTG; result = -0.0147
Strand = AATACCCA; result = -0.182
Strand = AAAGTGCG; result = 0.0932

Set 3 — method: universal PBM; form: double-stranded DNA, one strand shown; medium: in vitro; tested at: not given; direction: higher = stronger binding; endpoint: E-score
Target: Sal-like protein 4, full length isoform B (SALL4, Homo sapiens, UniProt Q9UJQ4-2, residues 1-616)
Notes: 8-mer, flanks averaged, mean of replicates
Strand = GGACATAC; result = 0.0262
Strand = CAGATGAC; result = -0.0138
Strand = ATCCCTCG; result = -0.139
Strand = GTTTTGAA; result = 0.126
Strand = AGTTATGC; result = 0.242
Strand = CGTTAGTA; result = 0.118
Strand = CGGCCGAA; result = -0.239
Strand = CGTGTCAA; result = -0.166
Strand = CCGAGAGA; result = -0.152
Strand = AACATTAG; result = 0.153
Strand = CGTTGCGC; result = -0.254
Strand = AAAGGGGG; result = -0.0886
Strand = CGGGTTCA; result = -0.233
Strand = ACTCCCCA; result = 0.0591
Strand = CTGCTACA; result = -0.0752
Strand = AGCACACG; result = -0.117
Strand = GTGGTAAC; result = 0.114
Strand = CGGACATA; result = 0.0554
Strand = AATTCGGC; result = -0.0697
Strand = GAGTTTGA; result = -0.0217
Strand = TCACCCGA; result = -0.134
Strand = TCGATACA; result = 0.192
Strand = TGCCCTAA; result = -0.1
Strand = GATATGGA; result = 0.348
Strand = CCCCCAGA; result = -0.176

Set 4 — method: protein-binding microarray; form: double-stranded DNA, one strand shown; medium: in vitro; tested at: 250 nM; notes: 60-bp whole probe; with: salmon DNA 0.4 mg/ml; reference: random background probes; direction: higher = stronger binding; endpoint: log fluorescence; all sequences stand within: GCCTAGCAC … GTCTTGATTCGCTTGACGCTGCTG
Target: Interferon regulatory factor 7, full length, phosphomimetic (IRF7, Homo sapiens, UniProt Q92985, residues 1-503, S101K/S471D/S472D/S475D/S476D/S477D/S483D/S484D/S487D)
Chain of UniProt Q92985 (whole entry, unmodified, looked up): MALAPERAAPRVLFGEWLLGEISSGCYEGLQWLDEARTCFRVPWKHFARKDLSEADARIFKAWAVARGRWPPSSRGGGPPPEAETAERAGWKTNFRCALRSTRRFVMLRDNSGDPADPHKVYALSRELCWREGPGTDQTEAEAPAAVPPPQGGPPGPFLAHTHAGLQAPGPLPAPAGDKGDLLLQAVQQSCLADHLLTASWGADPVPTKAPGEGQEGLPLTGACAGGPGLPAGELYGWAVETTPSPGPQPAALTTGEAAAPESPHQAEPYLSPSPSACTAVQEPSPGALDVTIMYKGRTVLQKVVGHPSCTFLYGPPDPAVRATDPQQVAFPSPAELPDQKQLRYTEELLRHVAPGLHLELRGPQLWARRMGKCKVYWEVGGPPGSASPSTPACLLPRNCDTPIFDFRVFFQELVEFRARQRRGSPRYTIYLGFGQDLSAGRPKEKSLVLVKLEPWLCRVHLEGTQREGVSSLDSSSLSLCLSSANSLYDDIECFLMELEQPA
Strand = TTAGGACTGGGACTGGCTTAGTGCTAG; result = -0.541 z-score
Strand = GACGATTCCAGTTTCGAGTCGTGCTAG; result = 8.74 z-score
Strand = TTAGATATCAGACTTGATTAGTGCTAG; result = -0.379 z-score
Strand = GACGAACTGAGACTGGATACGTGCTAG; result = -0.0015 z-score
Strand = TCATGCTCATTTTTCAGACTGTGCTAG; result = 0.568 z-score
Strand = GACGATATCAGTCTCGAGCCGTGCTAG; result = -0.361 z-score
Strand = TTAGATTTCAGTTCCGACTAGTGCTAG; result = 1.05 z-score
Strand = TTAGGTTTCCTTATACTTTAGTGCTAG; result = 2.31 z-score
Strand = TTAGGACTGGGTTTGGGTTAGTGCTAG; result = 0.316 z-score
Strand = TTAGGTTTCCTTCTCCTTTAGTGCTAG; result = 2.72 z-score
Strand = GACGGTATCGGGACTTGGGACGTGCTA; result = -0.239 z-score
Strand = GACAGTTTCGGGACTGGGGACGTGCTA; result = 3.53 z-score
Strand = CTAGGTTTCGGACTGGGTTAGTGCTAG; result = 4.66 z-score
Strand = TTTGGTTTCGGACTGGGTTAGTGCTAG; result = 5.61 z-score
Strand = GACGATATCGGTACTGGAGACGTGCTA; result = -0.129 z-score
Strand = TTAGATCTCAGTCTCGAATAGTGCTAG; result = 0.661 z-score
Strand = GACGGTCTCGGTTTCAGGACGTGCTAG; result = 6.12 z-score
Strand = GACGGTATTGGACTGGGGACGTGCTAG; result = -0.343 z-score
Strand = GACGAACTGAATCTCGAGACGTGCTAG; result = 0.468 z-score
Strand = GGTTTTTACTTTCTGAATGCGTGCTAG; result = 3.23 z-score
Strand = AATGACTCTATGAAGTAGTTGTGCTAG; result = -0.251 z-score
Strand = GACGGTTTCGGCTTCGGGACGTGCTAG; result = 6.28 z-score
Strand = TTAGGTATCCTTCTCCTTTGGTGCTAG; result = 0.224 z-score
Strand = GACTATATCAGTATCGAGACGTGCTAG; result = 0.393 z-score
Strand = GACGAACTGGGGTTTCAAGACGTGCTA; result = -0.518 z-score

Some of these lines once more (set 4):
Strand = TTAGGTTTCCTTATACTTTAGTGCTAG; result = 2.31 z-score
Strand = GACGGTTTCGGCTTCGGGACGTGCTAG; result = 6.28 z-score
Strand = GACTATATCAGTATCGAGACGTGCTAG; result = 0.393 z-score
Strand = TTAGATCTCAGTCTCGAATAGTGCTAG; result = 0.661 z-score
Strand = TTAGGTTTCCTTCTCCTTTAGTGCTAG; result = 2.72 z-score
Strand = TTAGGACTGGGACTGGCTTAGTGCTAG; result = -0.541 z-score
Strand = GACGAACTGAATCTCGAGACGTGCTAG; result = 0.468 z-score
Strand = AATGACTCTATGAAGTAGTTGTGCTAG; result = -0.251 z-score
Strand = GACGATTCCAGTTTCGAGTCGTGCTAG; result = 8.74 z-score
Strand = GACAGTTTCGGGACTGGGGACGTGCTA; result = 3.53 z-score
Strand = CTAGGTTTCGGACTGGGTTAGTGCTAG; result = 4.66 z-score
Strand = GGTTTTTACTTTCTGAATGCGTGCTAG; result = 3.23 z-score
